Experimental data from different studies.
Protocols differ between the studies behind these lines. Values joined by “and” are separate records of one study, mostly repeats; a detail may differ. Numbers after ± are the reported error.

`COC1CN([C@H]2CC[C@H]([C@@]3(C)Oc4c(Cl)cc(C(=O)NCc5c(SC)cc(C)[nH]c5=O)c(C)c4O3)CC2)C1`: “log2 fold change” 4.67 (RNA-seq, measured: RORB; human, whole blood; dose not given, 24 h; relative to: pretreatment baseline).
With `COc1ccc(NC(=O)c2ccc3[nH]c(-c4ccc(N(C)C)cc4)nc3c2)cn1` the tumour volume was 43.4 mm3 and 147 mm3 and 59.8 mm3 and 42.4 mm3 and 62.5 mm3 (CT26, BALB/c mice, subcutaneous syngeneic graft; dose not given, day 2).
The tumour volume of `CCCCCc1ccc(S(=O)(=O)N2CC2C(=O)OC)cc1` (stereo not drawn) is reported as 139 mm3 (mouse, Lewis lung carcinoma; intraperitoneal, 5 mg/kg, 16 doses, day 9).
Under “activated partial thromboplastin time”, `COC1OC(C)C(OS(=O)(=O)O)C(OC2OC(C)C(OS(=O)(=O)O)C(OC3OC(C)C(OS(=O)(=O)O)C(OC4OC(C)C(OS(=O)(=O)O)C(OS(=O)(=O)O)C4OS(=O)(=O)O)C3OS(=O)(=O)O)C2OS(=O)(=O)O)C1OS(=O)(=O)O` (stereo not drawn) is recorded as 50.1 s and 50.7 s and 50.2 s (human plasma; 32 µg/mL).
For `COc1cc2c(NC3CCN(C(C)C)CC3)cc(N3CCOCC3)nc2cc1OCCCN1CCCC1`, “protein level difference” read -0.0252 (TMT proteomics, measured: LDHB; 5xFAD mice, hippocampus; dose not given, unit not given; relative to: wild type).
The inhibition of `CC(=O)[O-].O.O.O.O.[Ni+2].[O-]c1ccc(Br)cc1C=NCCN1CCOCC1` is reported as 23.1% (DPPH radical scavenging; 80 µM).
`COC1OC(C)C(O)C(OC2OC(C)C(O)C(OC3OC(C)C(O)C(OS(=O)(=O)O)C3OS(=O)(=O)O)C2OS(=O)(=O)O)C1OS(=O)(=O)O` (stereo not drawn): “activated partial thromboplastin time” 33.3 ± 0.5 s (human plasma; 128 µg/mL).
The hepatic clearance of `O=C(CC(F)(F)F)Nc1ccc([C@H]2[C@@H](F)[C@@H](F)C[C@@H](F)[C@H]2F)cc1` is reported as 14 mL/min/kg (liver microsome stability; mouse liver microsomes; 1 µM).
`COC1OC(C)C(OC2OC(C)C(OS(=O)(=O)O)C(OC3OC(C)C(OC4OC(C)C(OS(=O)(=O)O)C(OC5OC(C)C(OS(=O)(=O)O)C(OS(=O)(=O)O)C5O)C4O)C(OS(=O)(=O)O)C3O)C2O)C(OS(=O)(=O)O)C1O` (stereo not drawn): “activated partial thromboplastin time” 34.3 ± 0.5 s (human plasma; 128 µg/mL).
The hepatic clearance of `CS(=O)(=O)c1ccc(-c2ccc(C3CCCCC3)cc2)cn1` is reported as 28 mL/min/kg (liver microsome stability; dog liver microsomes; 1 µM).
For `CC(=O)N1c2ccc(-c3ccc(CNC(=O)c4cn5cc(-c6cnc(N)nc6)nc(N6CCOCC6)c5n4)cc3)cc2CC[C@@H]1C`, the paraprotein response was 81% (mouse, Vk*MYC myeloma transplant; dose not given, 18 d; relative to: mice).
With `Nc1nc2cc(CC[C@H]3C[C@@H](n4ccc5c(N)ncnc54)[C@H](O)[C@@H]3O)ccc2cc1Br` the %ΔTGI was 84.5% (A-427 xenograft, mouse; 1.0 mg/kg/day, day 34).
